Experimental data collected from several papers.
Compare with care: the assays were run in different laboratories.
HTR1F: 5-hydroxytryptamine receptor 1F (HTR1F, Homo sapiens, UniProt P30939)
Chain of UniProt P30939 (whole entry, looked up): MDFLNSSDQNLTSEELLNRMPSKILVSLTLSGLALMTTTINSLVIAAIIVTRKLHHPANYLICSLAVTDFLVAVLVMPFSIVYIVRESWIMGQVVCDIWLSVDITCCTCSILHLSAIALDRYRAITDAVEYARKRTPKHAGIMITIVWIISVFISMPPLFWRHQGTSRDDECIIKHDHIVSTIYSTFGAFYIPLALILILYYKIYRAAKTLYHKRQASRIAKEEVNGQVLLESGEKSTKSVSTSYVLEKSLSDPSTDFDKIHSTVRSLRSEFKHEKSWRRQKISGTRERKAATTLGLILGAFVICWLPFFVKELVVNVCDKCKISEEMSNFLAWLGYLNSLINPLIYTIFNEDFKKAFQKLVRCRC
MTNR1B: Melatonin receptor type 1B (MTNR1B, Homo sapiens, UniProt P49286)
Chain of UniProt P49286 (whole entry, looked up): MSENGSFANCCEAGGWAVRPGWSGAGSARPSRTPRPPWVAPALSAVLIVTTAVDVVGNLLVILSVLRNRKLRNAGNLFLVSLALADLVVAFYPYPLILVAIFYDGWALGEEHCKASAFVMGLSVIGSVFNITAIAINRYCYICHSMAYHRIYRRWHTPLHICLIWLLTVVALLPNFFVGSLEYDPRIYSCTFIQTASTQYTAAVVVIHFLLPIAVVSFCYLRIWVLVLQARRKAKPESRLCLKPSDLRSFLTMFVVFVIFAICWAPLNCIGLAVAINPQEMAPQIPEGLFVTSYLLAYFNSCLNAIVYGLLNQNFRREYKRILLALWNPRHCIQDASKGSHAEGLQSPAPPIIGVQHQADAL
MTNR1A: Melatonin receptor type 1A (MTNR1A, Homo sapiens, UniProt P48039)
Chain of UniProt P48039 (whole entry, looked up): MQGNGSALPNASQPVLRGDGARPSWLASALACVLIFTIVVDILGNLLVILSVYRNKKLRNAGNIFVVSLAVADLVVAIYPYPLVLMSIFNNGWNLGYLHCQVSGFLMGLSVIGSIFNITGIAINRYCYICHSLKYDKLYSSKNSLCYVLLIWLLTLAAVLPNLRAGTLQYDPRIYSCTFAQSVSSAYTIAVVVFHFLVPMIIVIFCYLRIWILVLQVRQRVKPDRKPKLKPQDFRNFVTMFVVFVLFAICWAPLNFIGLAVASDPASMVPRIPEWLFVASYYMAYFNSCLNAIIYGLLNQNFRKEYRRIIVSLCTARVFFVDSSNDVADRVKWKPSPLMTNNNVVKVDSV
Chain of UniProt P0DMS8 (whole entry, unmodified, looked up): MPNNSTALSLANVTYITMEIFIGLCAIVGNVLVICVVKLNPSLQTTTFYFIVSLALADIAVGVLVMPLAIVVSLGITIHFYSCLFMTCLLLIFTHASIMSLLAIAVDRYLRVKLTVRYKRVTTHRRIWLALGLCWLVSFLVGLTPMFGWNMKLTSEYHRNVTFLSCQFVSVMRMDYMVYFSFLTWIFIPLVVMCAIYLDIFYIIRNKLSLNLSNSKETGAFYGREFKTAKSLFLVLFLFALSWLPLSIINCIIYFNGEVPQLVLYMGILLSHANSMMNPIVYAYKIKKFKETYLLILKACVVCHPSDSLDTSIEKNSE
Chain of UniProt P37173 (whole entry, looked up): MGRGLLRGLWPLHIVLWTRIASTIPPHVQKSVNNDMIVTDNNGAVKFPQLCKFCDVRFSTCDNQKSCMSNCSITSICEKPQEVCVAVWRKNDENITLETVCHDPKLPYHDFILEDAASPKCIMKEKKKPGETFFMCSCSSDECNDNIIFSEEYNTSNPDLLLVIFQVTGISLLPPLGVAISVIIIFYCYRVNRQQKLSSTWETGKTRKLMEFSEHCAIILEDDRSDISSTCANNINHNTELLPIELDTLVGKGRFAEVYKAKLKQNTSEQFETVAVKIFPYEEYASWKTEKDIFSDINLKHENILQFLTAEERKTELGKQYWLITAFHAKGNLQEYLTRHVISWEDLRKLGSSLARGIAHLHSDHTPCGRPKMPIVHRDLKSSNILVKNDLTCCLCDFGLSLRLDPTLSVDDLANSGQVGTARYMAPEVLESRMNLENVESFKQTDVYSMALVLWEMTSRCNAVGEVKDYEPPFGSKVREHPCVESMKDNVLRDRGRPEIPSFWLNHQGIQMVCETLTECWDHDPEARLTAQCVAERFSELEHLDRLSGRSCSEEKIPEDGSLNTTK
Chain of UniProt Q16581 (whole entry, looked up): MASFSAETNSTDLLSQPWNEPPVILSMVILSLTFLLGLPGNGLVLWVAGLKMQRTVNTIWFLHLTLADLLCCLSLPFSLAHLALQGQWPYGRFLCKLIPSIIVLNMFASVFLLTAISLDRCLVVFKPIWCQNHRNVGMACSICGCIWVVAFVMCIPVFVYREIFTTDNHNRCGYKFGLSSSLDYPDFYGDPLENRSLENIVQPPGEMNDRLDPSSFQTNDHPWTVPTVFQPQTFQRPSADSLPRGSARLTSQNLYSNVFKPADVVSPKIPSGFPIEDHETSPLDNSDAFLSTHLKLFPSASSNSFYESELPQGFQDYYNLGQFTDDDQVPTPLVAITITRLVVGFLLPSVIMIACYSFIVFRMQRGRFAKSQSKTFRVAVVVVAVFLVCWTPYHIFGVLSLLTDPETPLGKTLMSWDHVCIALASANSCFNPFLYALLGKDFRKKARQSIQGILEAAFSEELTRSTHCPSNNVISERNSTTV

`CC(C)C[C@H](NC(=O)[C@@H](N)[C@@H](C)O)C(=O)N[C@@H](CCC(N)=O)C(=O)N1CCC[C@H]1C(=O)N1CCC[C@H]1C(=O)N[C@@H](C)C(=O)N[C@@H](CO)C(=O)N[C@@H](CO)C(=O)N[C@@H](CCCNC(=N)N)C(=O)N[C@H](CCCNC(=N)N)C(=O)N[C@@H](CCCNC(=N)N)C(=O)N[C@@H](Cc1c[nH]cn1)C(=O)N[C@@H](Cc1ccccc1)C(=O)N[C@@H](Cc1c[nH]cn1)C(=O)N[C@@H](Cc1c[nH]cn1)C(=O)N[C@@H](C)C(=O)N[C@@H](CC(C)C)C(=O)N1CCC[C@H]1C(=O)N1CCC[C@H]1C(=O)N[C@H](C)C(=O)N[C@@H](CCCNC(=N)N)C(=O)O` gave an EC50 of 5.99 nM (C3a anaphylatoxin chemotactic receptor (C3AR1, Homo sapiens, UniProt Q16581); β-arrestin recruitment, agonist, BRET).
The EC50 of `CC(C)=CCNc1ncnc2c1ncn2[C@@H]1O[C@H](CO)[C@@H](O)[C@H]1O` is reported as 36.1 nM (Adenosine receptor A3 (ADORA3, Homo sapiens, UniProt P0DMS8, M174A); G protein activation, agonist).
For `COC(=O)[C@@H]1[C@H]2C[C@H]3c4[nH]c5ccccc5c4CCN3C[C@@H]2CC[C@@H]1O`, the EC50 was 173 nM (HTR1F; G protein activation, agonist, BRET).
With `CCC(=O)NC1Cc2ccccc2C(c2ccccc2)C1` (stereo not shown) the EC50 was 759 nM (MTNR1B; β-arrestin recruitment, agonist).
The EC50 of `COc1ccc2c(c1)N(Cc1cc(C)ncn1)CCO2` is reported as 2.06 nM (MTNR1A; cAMP, agonist, luciferase).
`CCCCC(=O)Nc1ccc(-c2ccc3ncn(CCC)c(=O)c3c2)cn1` gave a remaining binding of 100% (TGF-beta receptor type-2 (TGFBR2, Homo sapiens, UniProt P37173); binding, competition with immobilised ligand; 0.5 µM).
`COc1ccc2ncn(CCNC(C)=O)c2c1` gave an EC50 of 759 nM (MTNR1B; GTPγS binding, agonist, radiometric; cell membranes).
The EC50 of `COc1cc(C(=O)N2CCc3c(cccc3OC)C2)on1` is reported as 102 nM (MTNR1A; cAMP, agonist, luciferase).
With `CN(C)c1ncnc2c1ncn2[C@@H]1O[C@H](CO)[C@@H](O)[C@H]1O` the EC50 was 36000 nM (Adenosine receptor A3 (ADORA3, Homo sapiens, UniProt P0DMS8, I253N/V169F); G protein activation, agonist).
With `CCOc1cccc(CNc2cccnc2)c1` the EC50 was 44.5 nM (MTNR1A; cAMP, agonist, luciferase).
`COc1cc(I)c2[nH]cc(CCNC(C)=O)c2c1` gave an EC50 of 60.3 nM (MTNR1A; β-arrestin recruitment, agonist).
For `O=C1c2ccccc2S(=O)(=O)N1CCCCN1CCN(c2ncccn2)CC1`, the EC50 was 726 nM (HTR1F; G protein activation, agonist, BRET).
For `COc1ccc(CNc2ccc(C)nc2)cc1`, the EC50 was 1240 nM (MTNR1A; cAMP, agonist, luciferase).

Excerpt of the above:
With `CCOc1cccc(CNc2cccnc2)c1` the EC50 was 44.5 nM (MTNR1A; cAMP, agonist, luciferase).
